{"data": "Assay results of several laboratories", "organism": "Hepatitis C virus", "note": "pEC50, pIC50: −log10 of the molar value."}
{"Compound": "Cc1ccc(N2C(=O)C=CC2=O)c(Br)c1", "test": "viral replication, inhibitor, luciferase", "test system": "Huh7.5", "conditions": "72 h, replicon", "measurement": "pEC50", "value": "< 4.00"}
{"Compound": "Cc1ccc(S(=O)(=O)Nn2c3c(cc(-c4nc5ccccc5s4)c2=O)CCCCCC3)cc1", "test": "viral replication, qRT-PCR", "test system": "Huh7.5 cells, genotype 4 ED-43/SG-Feo", "conditions": "non-toxic concentration", "measurement": "reduction", "value": "30%"}
{"Compound": "NCc1ccc(F)c(Oc2ccccc2)c1F", "test": "viral replication, luciferase replicon", "test system": "Huh-7 subgenomic replicon, genotype 1b", "conditions": "72 h", "measurement": "EC50", "value": "inactive"}
{"Compound": "Cc1ccc(S(=O)(=O)Nn2c3c(cc(-c4nc5ccccc5s4)c2=O)CCCC3)cc1", "test": "viral replication, qRT-PCR", "test system": "Huh7.5 cells, genotype 4 ED-43/SG-Feo", "conditions": "non-toxic concentration", "measurement": "reduction", "value": "23.3%"}
{"Compound": "OCc1nc(-c2cnc(N3CCC(Oc4ccccc4C(F)(F)F)CC3)s2)no1", "test": "viral replication, inhibitor, qPCR", "test system": "Huh-7, GETYPE1B", "conditions": "96 h, replicon", "measurement": "pEC50", "value": 7.21}
{"Compound": "COc1ccc2c(c1)C=C(C(=O)N1C[C@@H](C)O[C@@H](C)C1)Cn1c-2c(C2CCCCC2)c2ccc(C(=O)NS(=O)(=O)N(C)C)cc21", "test": "viral replication, inhibitor", "test system": "Huh-7, GETYPE1A", "conditions": "replicon", "measurement": "pEC50", "value": 7.40}
{"Compound": "CC(=O)O[C@@H]1[C@@H](OC(C)=O)[C@H](Sc2sc(C(=O)c3ccc(Br)cc3)c(N)c2-c2nc3ccccc3s2)OC[C@H]1OC(C)=O", "test system": "Huh7.5, genotype 4", "conditions": "non-toxic dose NG, mean over three titres", "measurement": "viral reduction", "value": "66.7%"}
{"Compound": "Cc1ccc2nc(-c3ccc(N=NNc4ccc(-c5nc6ccc(C)c(S(=O)(=O)O)c6s5)cc4)cc3)sc2c1S(=O)(=O)O", "test": "viral replication, inhibitor, luciferase", "test system": "Huh7.5", "conditions": "72 h, replicon", "measurement": "pIC50", "value": "< 4.00"}
{"Compound": "CC[C@@H](N)c1ccc(Cl)c(Oc2ccccc2)c1F", "test": "viral replication, luciferase replicon", "test system": "Huh-7 subgenomic replicon, genotype 1b", "conditions": "72 h", "measurement": "EC50", "value": "inactive"}
{"Compound": "N#C/C(=C\\c1ccc(O)c(O)c1)C(=O)c1ccc(O)c(O)c1", "test": "viral replication, inhibitor, luciferase", "test system": "Huh7.5", "conditions": "72 h, replicon", "measurement": "pIC50", "value": 4.74}
{"Compound": "O=C(O)/C=C/c1ccc(NC(=O)C2(NC(=O)c3ccc4c(C5CCCCC5)c5n(c4c3)CC(=O)Nc3ccccc3-5)CCCC2)cc1", "test": "viral replication, inhibitor", "test system": "Huh-7, GETYPE1A", "conditions": "replicon", "measurement": "pEC50", "value": 8.00}
{"note": "A few entries again:"}
{"Compound": "OCc1nc(-c2cnc(N3CCC(Oc4ccccc4C(F)(F)F)CC3)s2)no1", "test": "viral replication, inhibitor, qPCR", "test system": "Huh-7, GETYPE1B", "conditions": "96 h, replicon", "measurement": "pEC50", "value": 7.21}
